{"sequences": {"note": "Amino acid sequences for entries named in this document (tags omitted). Residues count along the entry.", "UniProt Q6IQ20, whole entry": "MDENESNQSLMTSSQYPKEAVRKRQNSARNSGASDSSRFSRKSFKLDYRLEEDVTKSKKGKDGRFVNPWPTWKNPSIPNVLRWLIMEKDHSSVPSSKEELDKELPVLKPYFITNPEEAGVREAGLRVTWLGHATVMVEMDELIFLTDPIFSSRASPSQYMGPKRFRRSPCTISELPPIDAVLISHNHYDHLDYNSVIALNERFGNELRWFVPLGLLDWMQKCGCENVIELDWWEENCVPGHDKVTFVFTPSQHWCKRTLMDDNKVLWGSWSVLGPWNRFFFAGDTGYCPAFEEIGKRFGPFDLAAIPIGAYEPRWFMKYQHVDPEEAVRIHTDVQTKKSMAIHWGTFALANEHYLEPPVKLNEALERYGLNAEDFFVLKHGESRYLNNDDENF", "UniProt P36544, 23-502 limits assumed": "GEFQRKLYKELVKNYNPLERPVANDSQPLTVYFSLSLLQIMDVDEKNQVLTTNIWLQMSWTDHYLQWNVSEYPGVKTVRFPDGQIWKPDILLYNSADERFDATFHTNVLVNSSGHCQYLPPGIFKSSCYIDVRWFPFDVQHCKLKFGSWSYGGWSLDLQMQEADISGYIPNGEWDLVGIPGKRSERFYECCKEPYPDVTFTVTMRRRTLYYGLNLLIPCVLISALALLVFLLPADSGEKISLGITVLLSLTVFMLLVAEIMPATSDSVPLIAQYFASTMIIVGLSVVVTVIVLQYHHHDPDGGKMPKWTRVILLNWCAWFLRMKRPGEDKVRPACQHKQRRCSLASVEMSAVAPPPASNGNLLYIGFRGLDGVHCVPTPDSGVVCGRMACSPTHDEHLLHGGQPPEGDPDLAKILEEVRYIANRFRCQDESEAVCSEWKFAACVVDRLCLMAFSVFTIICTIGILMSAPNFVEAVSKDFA"}, "data": "Literature values, collected from citations in different studies", "note": "± marks the error that the study gave."}
{"Substance": "O=C(NN1C(=O)[C@@H]2[C@@H]3C=C[C@@H]([C@H]4C[C@@H]34)[C@@H]2C1=O)c1ccc(C(F)(F)F)cc1", "target or system": "monkeypox virus", "test": "viral replication", "test system": "HFF, outbreak isolates", "endpoint": "EC50", "result": "0.004 to 0.02 µM"}
{"Substance": "methyl arachidonyl fluorophosphonate", "target or system": "N-acyl-phosphatidylethanolamine-hydrolyzing phospholipase D (Homo sapiens, UniProt Q6IQ20)", "test": "enzyme activity, inhibitor", "endpoint": "IC50", "result": "1000 µM"}
{"Substance": "α-conotoxin ImI", "target or system": "CHRNA7 (Homo sapiens, UniProt P36544)", "test": "ACh-evoked current, inhibitor", "test system": "Xenopus laevis oocytes", "conditions": "with: 100 µM ACh", "endpoint": "IC50", "result": "0.497 ± 0.032 µM"}
{"Substance": "CN(C)C(=O)Oc1ccc[n+](C)c1", "test system": "mouse", "conditions": "intramuscular, 24 h", "endpoint": "LD50", "result": "3.08 mg/kg"}
{"Substance": "COc1ccc([C@@H]2CC(=O)c3c(O)cc(O)cc3O2)cc1O", "target or system": "Replicase polyprotein 1ab, 3C-like proteinase (rep, Severe acute respiratory syndrome-related coronavirus, UniProt P0C6X7)", "test": "3CLpro cleavage, inhibitor, cell-based", "endpoint": "IC50", "result": "8.3 µM"}
{"note": "Some of these lines once more:"}
{"Substance": "CN(C)C(=O)Oc1ccc[n+](C)c1", "test system": "mouse", "conditions": "intramuscular, 24 h", "endpoint": "LD50", "result": "3.08 mg/kg"}
